Experimental data pooled from the literature.
Several values in a cell are separate wells, animals, samples, runs or records.
Target: Ephrin type-A receptor 2 (EPHA2, Homo sapiens, UniProt P29317)

SMILES | assay | conditions | scale | measurement | value
O=C(Cc1ccc(OCc2ccccc2)cc1)NC1(C(=O)O)CCN(C(=O)c2ccc(-c3cccc(Cl)c3)cc2)CC1 | enzyme activity, inhibitor | 10 µM |  | activity vs control | 106%
Cc1cccc(O[C@H]2CCC[C@@H](C(C)CNCc3ccncc3)C2)c1 (relative stereo) | cell-free assay | 1 µM |  | inhibition | -1%
CCN1CCN(Cc2ccc(C(=O)Nc3ccc(C)c(NCc4cnc5[nH]ccc5c4OC)c3)cc2C(F)(F)F)CC1 | binding, competition with immobilised ligand | 1 µM |  | remaining binding | 2%
C=CC(=O)Nc1cccc(-c2cnc3[nH]cc(C(=O)NC(C)(C)C)c3n2)c1 | enzyme activity, inhibitor | 0.1 µM |  | inhibition | -3%
Cc1cccc(-c2ccc3nc(NC(=O)C4CCCO4)nn3c2)c1 (centres unmarked) | enzyme activity, Dundee kinase panel | 10 µM |  | remaining activity | 87%
CC(=O)N1c2ccc(-c3ccc(CNC(=O)c4cn5cc(-c6cnc(N)nc6)nc(N6CCOCC6)c5n4)cc3)cc2CC[C@@H]1C | KINOMEscan | 10 µM |  | remaining binding | 81%
C=CC(=O)N1CCc2ccc(-n3c(=O)ccc4cnc5ccc(-c6cnn(C)c6)cc5c43)cc21 | KINOMEscan | 1 µM | reference: DMSO control | remaining binding | 100%
C[C@H]1CN(C(=O)c2cn(-c3ccnc(N)n3)c3cc(C#CC4(O)CCCCC4)ccc23)CCN1 | enzyme activity, inhibitor, FRET | 1 µM |  | inhibition | 14%
CNS(=O)(=O)Nc1nccc(Cc2c(C)c3ccc(Oc4ncccc4F)cc3oc2=O)c1F | cell-free assay, competition with immobilised ligand | 10 µM |  | remaining binding | 78%
Nc1ncc(-c2cc(-c3cnn(CC(F)(F)F)c3)ncc2F)nc1C(=O)NC1CNCC(F)C1 (centres unmarked) | enzyme activity | 1 µM | reference: DMSO control | remaining activity | 98%
COCC12C(=O)NC3C4(C(OC)CC1O)C1CC5(O)C(OC)C(O)C(OC(C)=O)(C1C5OC(=O)c1ccccc1)C3(O)C(OC)C24 (centres unmarked) | kinase activity, inhibitor, ProQinase kinase profiling | 25 µM | reference: control | remaining activity | 116% and 106%
NC(=O)C[C@H]1CCc2sc3ncnc(O[C@H]4CC[C@H](N5CCOCC5)CC4)c3c21 | enzyme activity, inhibitor | 10 µM |  | inhibition | 13%
COc1ccc(NC(=O)Nc2ccc3c(c2)C(=O)N(C(C)CO)CC(C)C(CN(C)Cc2ccc4c(c2)OCO4)O3)cc1 (centres unmarked) | binding, competition with immobilised ligand | 10 µM |  | remaining binding | 86%
CCn1cc(C(=O)O)c(=O)c2c(N)c(F)c(NC3CCCCC3)cc21 | kinase activity | 0.1 µM, added: ATP at Km |  | inhibition | 11.4%
COc1c(OCCCN2CCOCC2)ccc2c1N=C(NC(=O)c1cnc(N)nc1)N1CCN=C21 | kinase activity, inhibitor | 1 µM | reference: untreated control | remaining activity | 102%
COc1c(Cl)cccc1Nc1c(-c2ccncc2C#C[C@@]2(C)CCCN2C(=O)/C=C/CN(C)C)[nH]c2c1C(=O)NCC2 | cell-free assay, competition with immobilised ligand | 3 µM |  | remaining binding | 100%
CN1CCN(Cc2ccc(NC(=O)c3cccc(C#Cc4cnc(N)c5ncccc45)c3)cc2C(F)(F)F)CC1 | cell-free assay, competition with immobilised ligand | 50 nM |  | remaining binding | 19%
C=C1CCCCCCCCCC(CO)C1=O (centres unmarked) | cell-free assay | 10 µM |  | remaining signal | 100%
CC(C)=CC1OC(C)(C)C2C=C3C(=O)C(Cl)=CC(O)C3C3C(O)C4OC4C(=O)C132 (centres unmarked) | cell-free assay, competition with immobilised ligand | 10 µM |  | remaining binding | 88%
Cc1cnc2nc1Nc1cccc(c1)COC/C=C/COCc1cc(ccc1OCCN1CCOCC1)N2 | binding | 0.1 µM |  | remaining binding | 100%
Cc1ccc(C)c(-c2ccc3nc(NC(=O)C4CCCCC4)nn3c2)c1 | enzyme activity, Dundee kinase panel | 10 µM |  | remaining activity | 84%
COc1cc(OC)c(F)c(/C=C/c2cnc3ccn(S(=O)(=O)c4cn(CCF)cn4)c3n2)c1F |  | 100 nM |  | inhibition | 0%
CNC1C[S+]2CC[S+]3CC[S+](C1)[Ru-4]321([N]=C=S)[n]2c3ccc(OC)cc3c3c4c(c5cc(F)c[n+]1c5c32)C(=O)NC4=O (centres unmarked) | KinomeScan | 0.1 µM | reference: untreated | remaining binding | 92%
